Experimental data pooled from the literature.
Each line is one published result; not all experiments were run side by side.
Cell line: HepG2

The inhibition of CC(C)(C)c1cc2c(O)c(c1)Cc1cc(C(C)(C)C)cc(c1OCC(=O)Nc1ccccn1)Cc1cc(C(C)(C)C)cc(c1O)Cc1cc(C(C)(C)C)cc(c1OCC(=O)Nc1ccccn1)COC2 is reported as 26% (cell growth or viability, MTT; 15 µM, 72 h).
With CC1(C)[C@@H](O)CC[C@]2(C)[C@H]3C(=O)C=C4[C@@H]5C[C@@](C)(C(=O)O)CC[C@]5(C)CC[C@@]4(C)[C@]3(C)CC[C@@H]12 the inhibition was 10.7% (cell growth or viability, MTT; 20 µg/mL).
For CC(C)(C)c1cc2c(O)c(c1)Cc1cc(C(C)(C)C)cc(c1OCC(=O)Nc1cncc3ccccc13)Cc1cc(C(C)(C)C)cc(c1O)Cc1cc(C(C)(C)C)cc(c1OCC(=O)Nc1cncc3ccccc13)COC2, the inhibition was 91% (cell growth or viability, MTT; 15 µM, 72 h).
Cc1cc(CN2CCC(CCCCCCC(=O)NO)CC2)cc(C)c1-c1ncn(C)c1-c1ccc(C#N)c2ccccc12 has an inhibition of greater than 90% (cell growth or viability, MTT; 0.6 µM, 72 h).
For CCOC(=O)C/C(C)=N/NC(=O)c1nc2ccccc2n(C)c1=O, the inhibition was 94.6% (cell growth or viability, MTT; 10 µM).
CC(C)(C)c1cc2c(O)c(c1)Cc1cc(C(C)(C)C)cc(c1OCC(=O)Nc1cccc3cccnc13)Cc1cc(C(C)(C)C)cc(c1O)Cc1cc(C(C)(C)C)cc(c1OCC(=O)Nc1cccc3cccnc13)COC2 gave an inhibition of 26% (cell growth or viability, MTT; 15 µM, 72 h).
With CC1(C)C2CC[C@]3(C)[C@H](C(=O)C=C4[C@@H]5C[C@@](C)(C(=O)N6CCN(C(=O)Cc7ccc(Cl)cc7)CC6)CC[C@]5(C)CC[C@]43C)[C@@]2(C)CC[C@@H]1OC(=O)Cc1ccc(Cl)cc1 (some centres unmarked) the inhibition was 0% (cell growth or viability, MTT; 2 µg/mL).
The inhibition of O=C(COc1ccc(/C=N/Nc2nc(-c3ccc(Cl)cc3)cs2)cc1)N1CCN(C(=O)COc2ccc(/C=N/Nc3nc(-c4ccc(Cl)cc4)cs3)cc2)CC1 is reported as 42.6% (cell growth or viability, SRB; 100 µM, 48 h).
CC(=O)O[C@@H]1CC[C@@]2(C)C(CC[C@]3(C)C2C(=O)C=C2C4[C@@H](C)[C@H](C)CC[C@]4(C)CC[C@]23C)[C@@]1(C)C(=O)OCC(=O)Oc1cc(C)ccc1C(C)C (some centres unmarked) has an inhibition of roughly 56% (TNF-α production, ELISA, measured: TNF-α; 10 µM, added: acetaminophen 10 mM; reference: acetaminophen-treated cells).
The inhibition of CC(C)(C)c1cc2c(O)c(c1)Cc1cc(C(C)(C)C)cc(c1OCC(=O)Nc1cccc3ncccc13)Cc1cc(C(C)(C)C)cc(c1O)Cc1cc(C(C)(C)C)cc(c1OCC(=O)Nc1cccc3ncccc13)COC2 is reported as 25% (cell growth or viability, MTT; 15 µM, 72 h).
The inhibition of C/C(=N\N=c1/[nH]c(-c2ccccc2)cs1)c1ccccn1 is reported as 67.7% (cell growth or viability, SRB; 100 µg/mL, 48 h).
CC(=O)O[C@@H]1CC[C@@]2(C)C(CC[C@]3(C)C2C(=O)C=C2C4[C@@H](C)[C@H](C)CC[C@]4(C)CC[C@]23C)[C@@]1(C)C(=O)N/N=C1/C(=O)Nc2ccccc21 (some centres unmarked) has an inhibition of roughly 39% (TNF-α production, ELISA, measured: TNF-α; 1 µM, added: acetaminophen 10 mM; reference: acetaminophen-treated cells).
The inhibition of O=C(COc1ccccc1/C=N/Nc1nc(-c2ccc(Cl)cc2)cs1)N1CCN(C(=O)COc2ccccc2/C=N/Nc2nc(-c3ccc(Cl)cc3)cs2)CC1 is reported as 71.2% (cell growth or viability, SRB; 100 µM, 48 h).
For C/C(=N\N=C1/NC(=O)CS1)c1ccccn1, the inhibition was 60.2% (cell growth or viability, SRB; 100 µg/mL, 48 h).

A few entries again:
For C/C(=N\N=C1/NC(=O)CS1)c1ccccn1, the inhibition was 60.2% (cell growth or viability, SRB; 100 µg/mL, 48 h).
CC(=O)O[C@@H]1CC[C@@]2(C)C(CC[C@]3(C)C2C(=O)C=C2C4[C@@H](C)[C@H](C)CC[C@]4(C)CC[C@]23C)[C@@]1(C)C(=O)OCC(=O)Oc1cc(C)ccc1C(C)C (some centres unmarked) has an inhibition of roughly 56% (TNF-α production, ELISA, measured: TNF-α; 10 µM, added: acetaminophen 10 mM; reference: acetaminophen-treated cells).
